Results collected from several papers.
A part holds a random share of what one study measured. Changes are numbered by the printed parent chain.

Sample 1
Target: ABI1, truncated, D143A, DHFR fusion (Arabidopsis thaliana)
Method: DHFR PCA, deep sequencing
Medium: yeast
Setting: methotrexate growth selection, single substitutions
Added: (+)-ABA 0 µM
Relative to: wild-type fitted maximum
Reading: higher = stronger binding
Parent: PYL1, truncated, DHFR fusion (Arabidopsis thaliana); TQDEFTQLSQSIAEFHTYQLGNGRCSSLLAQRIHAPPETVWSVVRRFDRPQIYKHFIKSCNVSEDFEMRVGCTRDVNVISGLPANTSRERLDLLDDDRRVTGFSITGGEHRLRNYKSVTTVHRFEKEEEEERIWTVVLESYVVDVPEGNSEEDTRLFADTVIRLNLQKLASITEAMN
Variant	relative binding score
Q31V	2%
G107W	-7.84%
Y115A	7.77%
D75T	42.7%
R111D	15%
R123C	10.8%
E131Q	44%
E109Y	-1.3%
R49T	17.7%
C60T	2.87%
V118D	-1.5%
Q10Y	-0.147%
N149V	56.3%
N114H	8.81%
V118G	2.1%

Sample 2
Target: Hepatocyte nuclear factor 3-alpha (Foxa1, Mus musculus, UniProt P35582, residues 1-468, full length assumed)
Method: EMSA with sequencing
Form: double-stranded DNA, one strand shown
Medium: in vitro
Concentration: 10 and 20 nM
Setting: whole designed probe, mean of two concentrations, ends assumed
Relative to: negative control set to 0
Reading: higher = stronger binding
All sequences stand within: GTGAGCGGTGCCCATTGATGGGGAAC … TTTCACTGGGATCGTGGGGAC
Residues (chain): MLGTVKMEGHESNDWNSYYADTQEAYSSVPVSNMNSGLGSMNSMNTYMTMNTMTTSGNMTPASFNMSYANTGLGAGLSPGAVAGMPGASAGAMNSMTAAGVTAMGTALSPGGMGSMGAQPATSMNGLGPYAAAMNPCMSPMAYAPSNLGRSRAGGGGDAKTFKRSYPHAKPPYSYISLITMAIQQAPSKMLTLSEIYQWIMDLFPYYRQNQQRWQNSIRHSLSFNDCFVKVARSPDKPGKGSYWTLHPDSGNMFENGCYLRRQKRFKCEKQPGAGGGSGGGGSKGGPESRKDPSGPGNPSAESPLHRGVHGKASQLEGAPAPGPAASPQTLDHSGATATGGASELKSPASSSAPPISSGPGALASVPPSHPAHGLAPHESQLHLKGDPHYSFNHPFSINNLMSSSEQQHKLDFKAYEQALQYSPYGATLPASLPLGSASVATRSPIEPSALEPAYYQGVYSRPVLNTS
Oligonucleotide	normalised bound fraction [ratio]
AAATTTGAAGCTTCACTTATATTGTGTCTTTATTCTGGAAAATAAATATTATTTATTCTGTTAAGTTTCTATTGGTTTTCTTTGCAATATTTCATGTTTACTTTGTTTTAGCTAAACTTTTTCTGGTATGGTGTACTAGAGACTTCTAACAAATTCTATATAAAAACAGACACACGTATAATAATCATATCTT	0.366
TATCATGAATTTGCACTATGACAAATCAACTTTCAAGCATTTTCTTGACAGTTTTAGAGGTTTTGCCAGCTTTTGACATACATACAGACAGAGTAATCTAGGGGAAAAAAGAAAACTTAGTGAGCACGTAAGTCATGGAGTTTGAGCTCCAATAAAAATATTCATTAAAGAGGAAGAATAAGGTGGGGGGTGG	0.00912
AGGTGAATTGGCTGCTTCCATCCTGGCTTGGAACTTCAGACATAGAAGCCTTGGGACTTTCTCAGGACTTTCTCCAGATCTGTCACATGCTCAGCAAACAAGCATCTCCTGACTCATGCTGACCTTAGCCAGGGATGTTGGTGAAACTGTGTGTTGGTCTAGGTACCTAGCCCATGCTAGGTGCTCATCGAAT	0.108
ATCTTCCCCCTCTTCCTTGCCCCACCAGCTCACCTTCCCGGGTTATTTGCAGATAGGAAAATAAATAAAGCCGGCATTCGTTAACCCTCTTCTGGCGCAAACTGCTGTTTGCTCTAGCAGGATTATGGTCCTTTGGCGACGCCAGGCTCCGGGAGAGCAAAGCACCGTGTCAGGGCCATGATCCGGGGTGGCC	0.366
GCTCAGCTTCCTCATCTAAGGAGGCAATAAAACCTTCCACTATGTGGTCAGGATTACAAGATTTAAAGTATATGAAATCTGTAAGGCCCTTATGCAAATAAAGATGTTATTATCCTACTTTGCAGATGAATGAAAAATATTACTGAATCAGAGAAACTAAGGTTCAGAGACATAAAGTCACTTGCTGACGTTT	0.432

Sample 3
Target: Prothrombin, mature alpha-thrombin (F2, Homo sapiens, UniProt P00734)
Method: aptamer microarray, sandwich
Form: DNA with 2'F-ANA
Medium: in vitro
Concentration: 200 nM
Setting: whole 15-mer aptamer, many near background
Added: Cy3 exosite-II aptamer, 400 nM
Reading: higher = stronger binding
Oligonucleotide: GGTTGGTGTGGTTGG
Modification	mean fluorescence intensity
2'F-ANA at 3 4 5 10 12 13 14	131 a.u.
2'F-ANA at 1 5 12	127 a.u.
2'F-ANA at 1 2 5 7 8 10 13 15	131 a.u.
2'F-ANA at 5 6 12 14	48.5 a.u.
2'F-ANA at 4 6 10 11 12 14 15	60.2 a.u.
2'F-ANA at 2 4 5 6 7 8 9 10 15	46 a.u.
2'F-ANA at 2 3 4 5 6 8 9 11 13	60.5 a.u.
2'F-ANA at 2 4 8 9 10 11 13	79 a.u.
2'F-ANA at 3 5 9 10 11 13 15	54.2 a.u.
2'F-ANA at 8 10 13 14	116 a.u.
2'F-ANA at 3 4 9 10 11 12 14 15	186 a.u.
2'F-ANA at 1 2 3 4 7 8 9 10 11 12 13 14 15	57.6 a.u.
2'F-ANA at 3 4 5 6 7 8 9 10 12 13 14 15	68.8 a.u.
2'F-ANA at 3 4 7 14	431 a.u.
2'F-ANA at 1 2 3 4 6 7 8 9 10 15	61.3 a.u.

Sample 4
Target: UBE2R2 UBC core domain (UniProt Q712K3)
Sequence of UniProt Q712K3 (whole entry, looked up): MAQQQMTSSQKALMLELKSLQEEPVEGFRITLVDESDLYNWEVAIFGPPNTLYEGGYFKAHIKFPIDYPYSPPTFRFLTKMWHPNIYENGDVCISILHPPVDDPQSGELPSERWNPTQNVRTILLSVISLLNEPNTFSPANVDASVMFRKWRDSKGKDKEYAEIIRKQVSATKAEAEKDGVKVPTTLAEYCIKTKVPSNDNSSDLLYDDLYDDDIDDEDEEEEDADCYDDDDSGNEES
Method: yeast two-hybrid
Medium: yeast
Setting: mostly zero background
Relative to: not given
Reading: higher = stronger interaction
B1: SHPRH RING domain (UniProt Q149N8); chain KTSGGVNPEPCPICARQLGKQWAVLTCGHCFCNECISIIIEQYSVGSHRSSIKCAICRQTTSHKEISY
Molecule	lacZ reporter activity
GSEEEEIPFRCFICRQAFQNPVVTKCRHYFCESCALEHFRATPRCYICDQPTGGIFNPA (RNF113B RING domain (UniProt Q8IZP6))	0
MEEMEEELKCPVCGSFYREPIILPCSHNLCQACARNILVQTPESESPQSHRAAGSGVSDY (TRIM9 RING domain (UniProt Q9C026))	0
KITELNPHLMCALCGGYFIDATTIVECLHSFCKTCIVRYLETNKYCPMCDVQVHKTRPLL (PCGF2 RING domain (UniProt P35227))	0
VPADASPDSKCPICLDRFDNVSYLDRCLHKFCFRCVQEWSKNKAECPLCKQPFDSIFHSV (TOPORS RING domain (UniProt Q9NS56))	0
B1 (SHPRH RING domain)	0

Sample 5
Target: RNA binding protein fox-1 homolog 2, RRM domain, GST-SBP tag (RBFOX2, Homo sapiens, UniProt O43251-10, residues 100-194)
Method: RNA Bind-n-Seq
Form: RNA
Medium: in vitro
Concentration: 365 nM
Setting: natural RNA segment, single round, ends assumed
Relative to: no-protein control
Reading: higher = stronger binding
All sequences stand within: GGGAGUUCUACAGUCCGACGAUC … UGGAAUUCUCGGGUGCCAA
Oligonucleotide	RBNS enrichment (R)
GUCAUUCGCUCAUGUAAGAGUUUUUAAGAGAGGGCUGAUUAUCACAGCCCUCUUUUCUCCUGAAUUUUUAAUGCAGAAGUUUGAAUGAAGCAAGGGAAGGCAUGUAGGGA	2.44
GAUAAAAGUCGGGGAUGGAAUGGGGGAAGAGGAAGGGCAGGAAAGCCCUCACCCUUUGCUGCCCUGGGGCCAUGGCCUCACCCCUCUGGAGGGCCAGAGGCAGGAGGUGG	0.387
UCUUCAGGGCACUGCUGCUGCCUUUAGUCGCUGAGGAAAAAUAAAGACAAAUGCUGCGCCCUUCCCCGAGUGGACUCUGAUCUGUUCAUGAGAGGGCGGGACUGGGGCCA	0.375
UUUUAGCAUGAUUUUCUUUUAAACUGCUUUUCAUUUUAAGGGCACCCGUGGCGGAAGCUGGUUUUGCAAGGACUGUGUAAGCUGUAUGCGUUCUAGCUGUAUGCGUUCUG	1.76
CUAUGCUGCCUAGGCUGACCUUGAACUCCUGGGCUCAAGCAGUCUACCCACCUCAGCCUCCUGUGUAGCUGGGAUUAUAGAUUGGAGCCACCAUGCCCAGCUCAGAGGGU	0.364
GUGGAAUAAGGAAACCCAGUGGAGCUAUUACACUUUUAAAUGUUCUAGCCAAAACAAAUUGCCAGUAUGGUUGAGGAAUUGAAUAUCAGAUGGCAUGCAGUCUCCCCUCC	1.5
CUUUUAAAAUUUUAAGAUAGGAAAGAAAUCUAUAGAAAGUGUUCUGUUACAAAAUGUAACUGUUACCAUUGGAAAUUUCACAUGUCAAAGGAGGUUAGCCGUUAUUUACC	0.362
GUUAGUUCUAGUCCAUAAUGGCCUUUGAGCAGCAAGCUUUCAGAAGAUUAUAUUUGAGGAUUGUAGCAGUUUCUUUGUUUCAGAUUGUCAGCUGACUUAAAAUGUUUGUG	0.457

Sample 6
Target: Ras GTPase-activating protein-binding protein 1, RRM domain (G3BP1, Homo sapiens, UniProt Q13283)
Sequence of UniProt Q13283 (whole entry, looked up): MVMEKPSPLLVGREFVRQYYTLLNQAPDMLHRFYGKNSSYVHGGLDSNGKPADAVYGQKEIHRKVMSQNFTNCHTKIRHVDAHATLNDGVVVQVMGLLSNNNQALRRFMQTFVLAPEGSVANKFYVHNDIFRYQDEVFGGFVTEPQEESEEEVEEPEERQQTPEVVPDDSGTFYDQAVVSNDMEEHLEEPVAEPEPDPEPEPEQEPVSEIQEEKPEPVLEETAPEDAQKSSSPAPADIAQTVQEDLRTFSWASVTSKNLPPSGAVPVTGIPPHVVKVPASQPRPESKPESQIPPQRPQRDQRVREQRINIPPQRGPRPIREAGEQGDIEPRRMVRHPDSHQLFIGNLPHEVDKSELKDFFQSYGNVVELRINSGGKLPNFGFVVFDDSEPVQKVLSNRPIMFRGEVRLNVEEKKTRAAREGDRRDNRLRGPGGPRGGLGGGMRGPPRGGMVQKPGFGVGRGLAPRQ
Method: RNA Bind-n-Seq
Form: RNA
Medium: in vitro
Concentration: 1 µM
Setting: whole 134-nt RNA, ends assumed
Added: 150 mM KCl
Relative to: input library
Reading: higher = stronger binding
All sequences stand within: GGGAGUUCUACAGUCCGACGAUC … UGGAAUUCUCGGGUGUCAAGG
Oligonucleotide	log2 enrichment
AAGUCCUGUGCUACACAUCGUAUGUACCGAAUCGGGAAAGGGAAAAAAAGGGUGGGAAAGUAUUAUGUUACGCCGUUCGGAUCUGCACUU	0.682
UGUAACCUGGGGAUUCUCUCAACUCUCUUGUCCCACACAGACUUCUAUGAGGAAAUCCAGGAGUUUGUGAAAGAUGUCUUUUCACCUAUA	0.0801
AGUCCUGUGCUACACAUCGUAUGUACCGAAUCGGAAAAAAAGGUUUGGUUUUUUUGGAAAGUAUUAUGUUACGCCGUUCGGAUCUGCACU	-0.326
ACCAUGCAGGUGGGCAUCUUUGGGAAGUGGGGCAAGGGGGGGACAGGGAGGGGGGUAACACUUUGGGAACAGGUGGUCCCAGGUCGUUUC	0.964
CACAGACAACACGCACCCACACAGACACAGAGAAAAGGGGUUGGGAUGGGGACAGGGUGCACAGCAGGGCGGGGUAGGACCCCAGCCCCU	-0.129
UCCUGUGCUACACAUCGUAUGUACCGAAUCAAAUUUUUAAACCCCCAAACCCCCCCAAAAAAGUAUUAUGUUACGCCGUUCGGAUCUGCA	-0.728
GGCAAGAGGAGGAACGACGUAGAAGAGAGGAAGAGAUGAUGAUUCGUCAACGUGAGAUGGAAGAACAAAUGAGGCGCCAAAGAGAGGAAA	-0.0631
UCUGCUAAAGAGAAAGGAAAAUUUGAAGAUAUGGCAAAAGCGGACAAGGCCCGUUAUGAAAGAGAAAUGAAAACCUAUAUCCCUCCCAAA	0.0268
AAGUCCUGUGCUACACAUCGUAUGUACCGAAUCGGAGGAAAAAAAGGUUUUUUUGGAAAGUAUUAUGUUACGCCGUUCGGAUCUGCACUU	-0.2

Sample 7
Target: PABPC1L2, full length, GST fusion (mouse, UniProt A0ABA7IW68)
Method: RNAcompete
Form: RNA
Medium: in vitro
Concentration: 20 nM
Setting: 7-mer, probes averaged, single round
Relative to: mean of 7-mers
Reading: higher = stronger binding
Residues (chain): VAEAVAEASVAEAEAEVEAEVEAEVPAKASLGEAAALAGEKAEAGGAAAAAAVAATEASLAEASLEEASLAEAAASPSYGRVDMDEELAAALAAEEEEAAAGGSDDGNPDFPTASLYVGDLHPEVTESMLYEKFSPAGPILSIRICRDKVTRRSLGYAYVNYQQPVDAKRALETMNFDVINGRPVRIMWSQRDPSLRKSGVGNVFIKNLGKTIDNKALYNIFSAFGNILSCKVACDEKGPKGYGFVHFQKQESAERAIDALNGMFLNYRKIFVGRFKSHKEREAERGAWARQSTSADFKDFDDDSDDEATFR
Oligonucleotide	7-mer Z-score
CCCCAGC	-0.157
UAAAUAU	1.74
GGUAUGA	-0.141
CCACUAG	-0.316
GCCAGCC	-0.403
UGCGUUG	-0.175
GAAGAUU	-0.0482
GUCGCUA	-0.393
AUGGGCG	0.244
AAUUUAC	0.376
AUUCACG	-0.0917
AGUUGGC	-0.0409
UCAGCUG	-0.293
ACGUUCG	-0.389
UUAUGUA	-0.171
AUCGCCG	-0.385
CUUCCCG	-0.454
CCUGAAG	-0.262
UUCGGUG	-0.296
CCGUAAC	-0.275
AUCUAAA	0.809
CAGAUAA	0.303
CGAGCAU	-0.133
